Experimental data gathered from unrelated publications.
A part holds a random share of what one study measured. Changes are numbered by the printed parent chain.

Set 1
Target: CCNE2, cyclin fold, Cln2 fusion (human)
Technique: yeast growth competition, sequencing
Matrix: yeast
Notes: strong parent motif
Reference: not given
Reading: higher = stronger binding
Parent: INSM1 docking peptide (human); PKAIRKLHFEDEV
`PKAINKLHFEDEV [R5N]`: “normalised enrichment score” -0.277.
Under “normalised enrichment score”, `PTAIRKLHFEDEV [K2T]` is recorded as 1.88.
`PKAFRKLHFEDEV [I4F]` — result for “normalised enrichment score”: 0.783.
Under “normalised enrichment score”, `PKAIRKLGFEDEV [H8G]` is recorded as 0.431.
`PKAIRKLHFEDQV [E12Q]`: “normalised enrichment score” 1.41.
`PKAIRKVHFEDEV [L7V]`: “normalised enrichment score” 0.203.
Under “normalised enrichment score”, `PKAIRKLHFEDAV [E12A]` is recorded as 1.86.
`PKAIRKYHFEDEV [L7Y]`: “normalised enrichment score” -0.113.
Under “normalised enrichment score”, `PKAGRKLHFEDEV [I4G]` is recorded as 0.0545.
`PKEIRKLHFEDEV [A3E]`: “normalised enrichment score” 0.526.
For `PKAIRKLHFYDEV [E10Y]`, “normalised enrichment score” read 0.884.
Under “normalised enrichment score”, `PKAIRTLHFEDEV [K6T]` is recorded as 0.638.
`PKAIRKLAFEDEV [H8A]` — result for “normalised enrichment score”: 0.994.
For `PKAIRKLHFCDEV [E10C]`, “normalised enrichment score” read 1.2.
`PKAIRKLHFEDYV [E12Y]` — result for “normalised enrichment score”: 2.19.
For `PKMIRKLHFEDEV [A3M]`, “normalised enrichment score” read 0.404.
`PKAIRKKHFEDEV [L7K]`: “normalised enrichment score” 0.213.
For `PCAIRKLHFEDEV [K2C]`, “normalised enrichment score” read 1.63.
`PKRIRKLHFEDEV [A3R]`: “normalised enrichment score” 0.288.
`PKAIRKLFFEDEV [H8F]`: “normalised enrichment score” 2.36.
`PKAPRKLHFEDEV [I4P]` — result for “normalised enrichment score”: 0.352.

Set 2
Target: CREB3L2, bZIP domain (human)
Technique: DHFR protein complementation
Matrix: yeast
Notes: single substitutions, most at no-binding floor
Reference: wild-type JUN-FOS pair
Reading: higher = stronger binding
Parent: JUN, bZIP domain (human); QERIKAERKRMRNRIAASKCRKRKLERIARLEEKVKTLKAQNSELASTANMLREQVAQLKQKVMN; partner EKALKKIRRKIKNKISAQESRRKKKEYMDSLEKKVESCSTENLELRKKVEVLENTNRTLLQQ
For `N42K`, the binding fitness was -1.55 natural log.
`L31V` has a binding fitness of -1.55 natural log.
`N42Y` gave a binding fitness of -1.48 natural log.
`A57R` gave a binding fitness of -1.52 natural log.
For `T48E`, the binding fitness was -1.46 natural log.
With `I28D` the binding fitness was -1.47 natural log.
The binding fitness of `L45Q` is reported as -1.32 natural log.
For `V35K`, the binding fitness was -1.51 natural log.
`E33T` has a binding fitness of -1.31 natural log.
The binding fitness of `K36F` is reported as -1.39 natural log.
With `Q41F` the binding fitness was -1.74 natural log.
`V35Y` gave a binding fitness of -1.51 natural log.
The binding fitness of `L52F` is reported as -1.55 natural log.

Set 3
Target: Sal-like protein 4, full length isoform A (SALL4, Homo sapiens, UniProt Q9UJQ4, residues 1-1053)
UniProt Q9UJQ4, sequence (whole entry, looked up): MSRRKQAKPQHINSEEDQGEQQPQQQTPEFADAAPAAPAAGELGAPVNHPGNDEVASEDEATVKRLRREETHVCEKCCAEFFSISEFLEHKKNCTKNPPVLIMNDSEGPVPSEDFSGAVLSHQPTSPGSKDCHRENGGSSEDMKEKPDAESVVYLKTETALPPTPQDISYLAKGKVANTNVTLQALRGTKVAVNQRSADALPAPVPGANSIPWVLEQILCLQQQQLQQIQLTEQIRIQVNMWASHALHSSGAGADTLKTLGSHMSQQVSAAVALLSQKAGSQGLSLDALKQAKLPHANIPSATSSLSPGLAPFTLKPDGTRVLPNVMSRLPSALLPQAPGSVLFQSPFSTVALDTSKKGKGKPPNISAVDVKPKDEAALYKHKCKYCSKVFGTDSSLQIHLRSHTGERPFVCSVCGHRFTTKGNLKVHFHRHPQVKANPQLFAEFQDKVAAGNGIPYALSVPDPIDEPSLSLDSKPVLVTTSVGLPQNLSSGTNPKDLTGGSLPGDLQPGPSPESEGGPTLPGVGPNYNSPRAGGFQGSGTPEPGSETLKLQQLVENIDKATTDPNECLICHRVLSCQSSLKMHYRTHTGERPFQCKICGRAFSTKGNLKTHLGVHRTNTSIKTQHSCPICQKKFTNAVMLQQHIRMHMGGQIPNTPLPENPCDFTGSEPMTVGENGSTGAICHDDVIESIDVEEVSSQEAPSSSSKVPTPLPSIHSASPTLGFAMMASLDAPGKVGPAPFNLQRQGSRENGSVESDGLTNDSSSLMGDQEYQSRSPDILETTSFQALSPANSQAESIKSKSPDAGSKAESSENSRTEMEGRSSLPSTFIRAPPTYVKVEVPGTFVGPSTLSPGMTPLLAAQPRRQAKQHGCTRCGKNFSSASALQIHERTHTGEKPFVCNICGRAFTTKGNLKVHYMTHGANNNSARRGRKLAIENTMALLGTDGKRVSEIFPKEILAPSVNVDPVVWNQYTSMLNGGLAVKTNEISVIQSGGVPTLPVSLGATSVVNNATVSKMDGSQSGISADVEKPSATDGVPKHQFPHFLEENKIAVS
Technique: universal PBM
Form: double-stranded DNA, one strand shown
Matrix: in vitro
Tested at: 600 nM
Notes: 8-mer, flanks averaged, mean of replicates
Reading: higher = stronger binding
With `CGTAAGCA` the E-score was -0.105.
`CTGGACTC` has an E-score of -0.0583.
`AGAGGTGA` gave an E-score of 0.0127.
`CTTGTGAA` gave an E-score of 0.0924.
The E-score of `TAAGGTGA` is reported as 0.0432.
`AAGTCTGC` has an E-score of -0.0799.
For `AGTGCATA`, the E-score was 0.167.
The E-score of `CCACGGCG` is reported as -0.291.
The E-score of `CGCGCATC` is reported as -0.0632.
For `AGGACGTC`, the E-score was -0.0851.
`AATATTGG` gave an E-score of 0.317.

Set 4
Target: Interferon regulatory factor 7, full length, phosphomimetic (IRF7, Homo sapiens, UniProt Q92985, residues 1-503, S101K/S471D/S472D/S475D/S476D/S477D/S483D/S484D/S487D)
Technique: protein-binding microarray
Form: double-stranded DNA, one strand shown
Matrix: in vitro
Tested at: 250 nM
Notes: 60-bp whole probe
Added: salmon DNA 0.4 mg/ml
Reference: random background probes
Reading: higher = stronger binding
Constant ends, left off below: GCCTAGCAC … GTCTTGATTCGCTTGACGCTGCTG
Construct (chain): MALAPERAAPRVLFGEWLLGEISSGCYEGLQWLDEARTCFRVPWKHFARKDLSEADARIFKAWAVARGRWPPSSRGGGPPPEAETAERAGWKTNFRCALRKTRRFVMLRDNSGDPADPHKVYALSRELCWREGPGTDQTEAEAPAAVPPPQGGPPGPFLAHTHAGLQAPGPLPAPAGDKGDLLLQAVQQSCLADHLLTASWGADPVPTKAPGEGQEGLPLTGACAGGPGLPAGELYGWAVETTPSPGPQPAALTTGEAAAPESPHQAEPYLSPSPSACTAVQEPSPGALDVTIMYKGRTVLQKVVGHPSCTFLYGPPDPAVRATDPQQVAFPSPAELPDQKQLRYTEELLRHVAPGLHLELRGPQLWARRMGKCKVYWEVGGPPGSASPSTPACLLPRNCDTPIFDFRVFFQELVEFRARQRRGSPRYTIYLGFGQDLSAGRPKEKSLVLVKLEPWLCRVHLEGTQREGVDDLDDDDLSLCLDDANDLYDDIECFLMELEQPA
`CTCTCCATGTGTTTAAAGACGTGCTAG` gave a log fluorescence of 0.186 z-score.
For `GAGGGTATCCTTCTCCTGACGTGCTAG`, the log fluorescence was -0.154 z-score.
The log fluorescence of `GACGGGATCGGGTTTCGGGACGTGCTA` is reported as 2.56 z-score.
`TTAGGTTTCCCTATCCTTTAGTGCTAG` gave a log fluorescence of 2.08 z-score.
For `GACGGTTTCGACTATCGGTACGTGCTA`, the log fluorescence was 5.46 z-score.
`AGTGTTTCCCCTATTTAAGAGTGCTAG` has a log fluorescence of 2.52 z-score.
`TCATCTCTGTTTATGTCACTGTGCTAG` gave a log fluorescence of 1.28 z-score.
For `GACGATATCAGCCTCGAGACGTGCTAG`, the log fluorescence was -0.22 z-score.
The log fluorescence of `TCATCTTTCACTGCTCCAACTGTGCTA` is reported as 0.767 z-score.
The log fluorescence of `CACACTTTCCCCTTCCTAGTGTGCTAG` is reported as 1.97 z-score.
The log fluorescence of `TTACAGATGTTTTTCATTTTGTGCTAG` is reported as 1.09 z-score.
For `GACGAGCTGGGGTTTCGAGACGTGCTA`, the log fluorescence was 1.2 z-score.
`GACGAACTGGGGTGTCGAGACGTGCTA` gave a log fluorescence of -0.633 z-score.
For `TTAGGTATCGGGAGTGGGTTAGTGCTA`, the log fluorescence was -0.13 z-score.
With `GACAATCTCAGTATCGAGACGTGCTAG` the log fluorescence was 0.116 z-score.
`TTAGGTCTCGGACTGTGTTAGTGCTAG` has a log fluorescence of 0.812 z-score.
`GAGGGTTTCGGTCTCGGGACGTGCTAG` gave a log fluorescence of 5.46 z-score.
For `TCATGTATGGATGTGTTACTGTGCTAG`, the log fluorescence was 0.106 z-score.
For `TCATGTCTCAGAGTCCTACTGTGCTAG`, the log fluorescence was 0.146 z-score.
`GACGGTCTCCTTAACCTGACGTGCTAG` gave a log fluorescence of -0.027 z-score.
The log fluorescence of `TCAGCTATTTTATATGCTACTGTGCTA` is reported as -0.245 z-score.
The log fluorescence of `GCCGGTTTCCTTTTCCTGACGTGCTAG` is reported as 7.55 z-score.

Set 5
Target: ABI1, truncated, D143A, DHFR fusion (Arabidopsis thaliana)
Technique: DHFR PCA, deep sequencing
Matrix: yeast
Notes: methotrexate growth selection, single substitutions
Added: (+)-ABA 58 µM
Reference: wild-type fitted maximum
Reading: higher = stronger binding
Parent: PYL1, truncated, DHFR fusion (Arabidopsis thaliana); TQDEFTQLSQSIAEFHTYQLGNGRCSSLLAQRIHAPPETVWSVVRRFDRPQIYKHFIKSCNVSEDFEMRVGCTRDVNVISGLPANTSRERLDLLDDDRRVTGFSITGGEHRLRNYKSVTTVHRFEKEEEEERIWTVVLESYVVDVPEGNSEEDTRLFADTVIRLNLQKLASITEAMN
For `L94K`, “relative binding score” read 9.32%.
`E109P`: “relative binding score” 29.3%.
For `T120L`, “relative binding score” read -8.96%.
For `E127S`, “relative binding score” read 98.8%.
`A175V`: “relative binding score” 78.3%.
`Q10L` — result for “relative binding score”: 72.1%.
`K54Y` — result for “relative binding score”: 0.656%.
Under “relative binding score”, `L20R` is recorded as 91.7%.
For `G102L`, “relative binding score” read -9.32%.
Under “relative binding score”, `L94W` is recorded as 86.9%.
For `A35V`, “relative binding score” read 49.2%.
`N77F`: “relative binding score” 89.8%.
`E128N`: “relative binding score” 99.3%.
`E64M`: “relative binding score” 76.3%.
`I52T` — result for “relative binding score”: 89%.
Under “relative binding score”, `D48T` is recorded as 22%.
Under “relative binding score”, `V40R` is recorded as -7.8%.
Under “relative binding score”, `P36W` is recorded as 50.4%.
For `H16P`, “relative binding score” read 14.9%.

Set 6
Target: UBE2S UBC core domain (UniProt Q16763)
UniProt Q16763, sequence (whole entry, looked up): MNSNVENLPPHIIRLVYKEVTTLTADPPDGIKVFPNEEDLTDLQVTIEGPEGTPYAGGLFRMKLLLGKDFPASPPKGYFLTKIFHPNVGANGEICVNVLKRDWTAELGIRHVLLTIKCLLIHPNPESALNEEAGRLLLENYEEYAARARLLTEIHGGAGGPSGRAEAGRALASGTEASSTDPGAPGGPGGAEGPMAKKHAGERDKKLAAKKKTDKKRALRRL
Technique: yeast two-hybrid
Matrix: yeast
Notes: mostly zero background
Reference: not given
Reading: higher = stronger interaction
B1: MEX3B RING domain (UniProt Q6ZN04); chain SGLRRKGSRDCSVCFESEVIAALVPCGHNLFCMECANRICEKSEPECPVCHTAVTQAIRIF
B2: TRIM22 RING domain (UniProt Q8IYM9); chain VKVDIEKEVTCPICLELLTEPLSLDCGHSFCQACITAKIKESVIISRGESSCPVCQTRFQPGNLRP
B3: RNF122 RING domain (UniProt Q9H9V4); chain AKKLQLYGQTCAVCLEDFKGKDELGVLPCQHAFHRKCLVKWLEVRCVCPMCNKPIASPSEAT
B4: RNF31 RING domain (UniProt Q96EP0); chain AFLRRLLAQECAVCGWALPHNRMQALTSCECTICPDCFRQHFTIALKEKHITDMVCPACGRPDLTDDTQLL
B5: TRIM60 RING domain (UniProt Q495X7); chain ALVNLQEESSCPICLEYLKDPVTINCGHNFCRSCLSVSWKDLDDTFPCPVCRFCFPYKSFRR
B6: ANAPC11 RING domain (UniProt Q9NYG5); chain GICRMAFNGCCPDCKVPGDDCPLVWGQCSHCFHMHCILKWLHAQQVQQHCPMCRQEWKFKE
B7: TRIM54 RING domain (UniProt Q9BYV2); chain SMDNLEKQLICPICLEMFSKPVVILPCQHNLCRKCANDVFQASNPLWQSRGSTTVSSGGRFRCPSCRHEVVLDRHGV
B8: TRIM26 RING domain (UniProt Q12899); chain PLRSLEEEVTCSICLDYLRDPVTIDCGHVFCRSCTTDVRPISGSRPVCPLCKKPFKKENIRP
B9: TRIM31 RING domain (UniProt Q9BZY9); chain FVNKLQEEVICPICLDILQKPVTIDCGHNFCLKCITQIGETSCGFFKCPLCKTSVRKNAIRF
Under “lacZ reporter activity”, `PEELAVNNDDCAICWDSMQAARKLPCGHLFHNSCLRSWLEQDTSCPTCRMSLNIADNNR (AMFR RING domain (UniProt Q9UKV5))` is recorded as 0.
`B1 (MEX3B RING domain)` — result for “lacZ reporter activity”: 0.
For `B2 (TRIM22 RING domain)`, “lacZ reporter activity” read 0.
`B3 (RNF122 RING domain)` — result for “lacZ reporter activity”: 0.
`B4 (RNF31 RING domain)`: “lacZ reporter activity” 0.
Under “lacZ reporter activity”, `B5 (TRIM60 RING domain)` is recorded as 0.
For `YCEMGSTFQLCKICAENDKDVKIEPCGHLMCTSCLTAWQESDGQGCPFCRCEIKGTEPII (CBLB RING domain (UniProt Q13191))`, “lacZ reporter activity” read 0.
`B6 (ANAPC11 RING domain)`: “lacZ reporter activity” 0.
For `LGTKLEAKYLCSACRNVLRRPFQAQCGHRYCSFCLASILSSGPQNCAACVHEGIYEEGIS (TRAF2 RING domain (UniProt Q12933))`, “lacZ reporter activity” read 0.
`B7 (TRIM54 RING domain)`: “lacZ reporter activity” 0.
`B8 (TRIM26 RING domain)` — result for “lacZ reporter activity”: 0.
Under “lacZ reporter activity”, `B9 (TRIM31 RING domain)` is recorded as 0.

Some of these lines once more (set 5):
Under “relative binding score”, `L94W` is recorded as 86.9%.
`I52T` — result for “relative binding score”: 89%.
`E64M`: “relative binding score” 76.3%.
`K54Y` — result for “relative binding score”: 0.656%.
For `A35V`, “relative binding score” read 49.2%.
For `L94K`, “relative binding score” read 9.32%.
